# Assay results collected from several papers.
# Each line is one published result; not all experiments were run side by side. ± gives the spread as reported.
Compound,assay,test system,conditions,AUC(0-t)
COc1c(O)cc(C(=O)O)cc1O,LC-MS/MS,"male Ross broilers, serum","intravenous, 0.49 mg/kg gallic acid, 6 h",0.2 ± 0.07 µM·h
C[C@@](Cc1ccc(O)c(O)c1)(NN)C(=O)O,,"Parkinson's disease patients, plasma","oral, dose not given, 3 h, high levodopa Cmax subgroup (≥9 µmol/L), median",0.66 µM·h
O=C(O)c1cc(O)c(O)c(O)c1,,"chicken Ross broiler, male, serum","intravenous, 0.49 mg/kg, 6 h",2.25 ± 0.63 µM·h
N[C@@H](Cc1ccc(O)c(O)c1)C(=O)O,,"Parkinson's disease patients, plasma","oral, dose not given, 3 h, low carbidopa AUC subgroup (11.5 µmol·h/L), median",8.43 µM·h
C[C@@H](N)C1CCN(S(=O)(=O)c2cccc3cnccc23)CC1,,"healthy volunteers, fasted, plasma","oral, 150 mg",34.8 ng·h/mL
CO[C@H]1CC[C@H](N2C(=O)CNc3ncc(-c4ccc(C(C)(C)O)nc4)nc32)CC1,geometric mean,"patients, plasma","oral, 15 mg, day 15",282 ng·h/mL
Oc1ccc([C@@H](O)c2cc(-c3ncnc4cc(N5CCOCC5)ccc34)c(F)cc2Cl)nn1,geometric mean,"healthy volunteers, plasma","oral, 100 mg, fasted tablet",380 ng·h/mL
N[C@@H](CC(=O)N1CCc2c(nc(C(F)(F)F)nc2C(F)(F)F)C1)CN1CC(F)(F)CCC1=O,,"healthy Korean adults, fasted, plasma","oral, 50 mg single dose, fixed-dose combination tablet, together with: enavogliflozin 0.3 mg",1330 ± 220 ng·h/mL
COc1nnc2ccc(N3CCC(c4ccc(OCCN5CCN(C)C(=O)[C@H]5C)cc4)CC3)nn12,,"patients, plasma","oral, 10 mg twice daily, multiple dose, monotherapy",0.172 µM·h
C=CC(=O)NC1CCN(c2ncc3ncnc(Nc4ccc(Oc5ccc6c(c5)ncn6C)c(C)c4)c3n2)CC1,,healthy men,"oral, 60 mg single dose",12.1 µM·h
Cc1ccc(NC(=O)c2ccc(CN3CCN(C)CC3)cc2)cc1Nc1nccc(-c2cncc(-c3oncc3C)c2)n1,,"Parkinson's disease patients, plasma","oral, 100 mg/day, 7 days, steady state",45700 ± 25000 ng·h/mL
OC[C@H]1O[C@@H](c2cc(Cc3ccc(C4CC4)cc3)c(Cl)c3c2CCO3)[C@H](O)[C@@H](O)[C@@H]1O,,"healthy Korean adults, fasted, plasma","oral, 0.3 mg single dose, separate tablets, together with: co-administered drug 50 mg",29.7 ± 9.23 ng·h/mL
CS(=O)(=O)c1ccc([C@@H](O)[C@@H](CF)NC(=O)C(Cl)Cl)cc1,,"Arbor Acres chickens, plasma","oral, 20 mg/kg, together with: quercetin 60 mg/kg pretreatment",41100 ± 2480 ng·h/mL
Cc1ccc2c(c1)C(=O)[C@]1(O)CCN(c3ccc4nc(C)ccc4c3)C1=N2.Cl,,plasma,"oral, 10 mg/kg",1.44 ± 0.14 µM·h
CC[C@H](Nc1ncnc2[nH]cnc12)c1oc2ccccc2c(=O)c1-c1cccc(F)c1,,"patients, Cohort-1, plasma","oral, 400 mg twice daily, together with: romidepsin 12 mg/m2",5770 ± 6000 ng·h/mL
CCCS(=O)(=O)N[C@H]1C[C@@H](N(C)c2ncnc3[nH]ccc23)C1,,"healthy volunteers, plasma, total","oral, 100 mg single dose, alone",1550 ng·h/mL
C=CC(=O)NC1CCN(c2ncc3ncnc(Nc4ccc(Oc5ccc6c(c5)ncn6C)c(C)c4)c3n2)CC1,,"healthy male volunteers, plasma","oral, 60 mg, unlabelled tablet",13.2 µM·h
